Published values collected from several papers.
Each line is one published result; not all experiments were run side by side.
Matrix: plasma
Route: oral

`O=C(O)COC[C@H]1CC[C@H](COC(=O)N(c2ccccc2)c2ccc(Cl)cc2)CC1` has an AUC of 14.3 ng·h/mL (human; 20 µg, multiple doses, twice daily, steady state).
`Nc1ccc(-c2nc([C@H]3CCc4cc(-c5cc(Cl)ccc5-n5cnnn5)cc(=O)n43)c(F)[nH]2)c(F)n1` gave an AUC of 89 ng·h/mL (human; 1 mg, single dose, fasted).
The AUC(0-inf) of `CC(C)(Sc1ccncc1-c1ccc(C#N)c2ccccc12)C(=O)O` is reported as 119 ng·h/mL (male human; 10 mg, single dose, fasted).
`CS(=O)(=O)n1cc2c(n1)CN([C@H]1CO[C@H](c3cc(F)ccc3F)[C@@H](N)C1)C2` has an AUC(0-t) of 82.5 µM·h (male human; 100 mg, single dose, fasted, healthy volunteers).
The AUC(0-t) of `CCCCCN1C[C@H](O)[C@@H](O)[C@H](O)[C@@H]1CO` is reported as 10800 ng·h/mL (human; 300 mg, single dose, fasted, healthy volunteers).
For `CCOc1ccc(Cc2cc([C@@H]3S[C@H](CO)[C@@H](O)[C@H](O)[C@H]3O)c(OC)cc2C)cc1`, the AUC(0-t) was 323 ng·h/mL (human; 1 mg, single dose, fasted, healthy volunteers).
`O=C(c1nc2n(n1)[C@H](c1ccccc1)C[C@@H]2F)C1CC1` has an AUC(0-t) of 18000 ng·h/mL (human; 150 mg, single dose, fasted, healthy volunteers).
The AUC(0-inf) of `CS(=O)(=O)n1cc2c(n1)CN([C@H]1CO[C@H](c3cc(F)ccc3F)[C@@H](N)C1)C2` is reported as 50.5 µM·h (male human; 50 mg, single dose, fasted).
For `C[C@@H]1CCC[C@H](n2cnc(-c3cc(Cl)ccc3-n3cc(Cl)nn3)cc2=O)c2cc(ccn2)-c2c(cnn2C(F)F)NC1=O`, the AUC(0-inf) was 15000 ng·h/mL (human; 300 mg, single dose, fasted, healthy volunteers).
With `COc1cccc(-c2ccc(NC(=O)C3=C(C(=O)O)CCC3)c(F)c2)c1` the AUC(0-inf) was 192000 ng·h/mL (male human; 40 mg, single dose, fasted, healthy volunteers).
With `CCn1c(C(=O)c2cc(C)cc(C#N)c2)c(C(C)C)c(=O)[nH]c1=O` the AUC was 8250 ng·h/mL (human; 150 mg, multiple doses, once daily, steady state, healthy volunteers).
